Measurements pooled from the literature.
Compare with care: the assays were run in different laboratories. ± gives the spread as reported.
Target: Acetylcholinesterase (ACHE, Homo sapiens, UniProt P22303)
UniProt P22303, sequence (whole entry, looked up): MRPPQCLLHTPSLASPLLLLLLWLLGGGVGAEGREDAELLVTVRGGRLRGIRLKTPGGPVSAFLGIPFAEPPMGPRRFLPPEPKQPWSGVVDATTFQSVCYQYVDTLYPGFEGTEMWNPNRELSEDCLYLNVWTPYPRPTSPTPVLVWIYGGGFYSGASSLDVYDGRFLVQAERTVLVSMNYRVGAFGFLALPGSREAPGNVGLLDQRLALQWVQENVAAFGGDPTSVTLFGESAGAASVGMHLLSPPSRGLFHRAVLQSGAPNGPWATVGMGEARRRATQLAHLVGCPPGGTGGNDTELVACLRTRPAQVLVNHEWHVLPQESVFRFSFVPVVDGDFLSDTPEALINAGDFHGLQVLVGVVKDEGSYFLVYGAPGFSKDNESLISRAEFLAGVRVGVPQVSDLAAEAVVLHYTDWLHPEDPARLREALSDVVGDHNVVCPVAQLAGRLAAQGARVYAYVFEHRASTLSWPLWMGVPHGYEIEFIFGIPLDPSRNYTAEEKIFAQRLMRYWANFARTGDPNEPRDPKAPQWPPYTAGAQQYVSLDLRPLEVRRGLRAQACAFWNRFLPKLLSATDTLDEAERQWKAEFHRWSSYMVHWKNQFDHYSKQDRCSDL

SMILES	assay	test system	setting	scale	endpoint	value
COc1cc2c(cc1OC)C(=O)/C(=C\c1ccc(N3CCCC3)cc1)C2	non-competitive inhibitor, secondary plot				Ki'	170 µM
Nn1c(-c2ccc(-n3nc(-c4ccccc4O)nc3-c3ccccc3O)cc2)n[nH]c1=S	modified Ellman's method		concentration not given		enzyme inhibition	inhibited
COc1cc2c(cc1OC)C(=O)C(=Cc1ccc(N3CCN(C)CC3)cc1)C2	non-competitive inhibitor, secondary plot				Ki'	0.62 µM
S=C(NCc1ccccn1)NCc1ccccn1	enzyme activity, inhibitor		125 µg/mL		inhibition	52.5%
Cc1ccc(C(C)C)c(OC(=O)CSc2nnc(Cn3cnc4c3c(=O)n(C)c(=O)n4C)o2)c1	enzyme activity, inhibitor, Ellman		25 µM		inhibition	61.1%
COc1cc2c(cc1OC)C(=O)/C(=C\c1ccc(N3CCCCC3)cc1)C2	non-competitive inhibitor, secondary plot				Ki'	37 µM
O=c1ccoc2ccc(OCCCCN3CCOCC3)cc12	uncompetitive inhibitor, Ellman	human erythrocyte ghosts			αKi	13.5 ± 4.1 µM
O=C(O)/C=C/c1cc(O)cc(O)c1	enzyme activity, inhibitor		250 µg/mL		inhibition	65.2 ± 1.14%
O=C(O)/C=C/c1ccc(O)cc1	inhibitor		500 µg/mL		inhibition	74.1 ± 0.9%
O=C1C=C(OCCCCCCCCn2cc(CNc3ccc4nccnc4c3)nn2)C(=O)c2ccccc21	inhibitor, Lineweaver-Burk		unit not given	above one favours free enzyme	alpha constant	4.18
O=c1c(O)c(-c2cc(O)ccc2O)oc2cc(O)cc(O)c12	enzyme activity, inhibitor		1000 µg/mL		inhibition	82.7 ± 2.2%
CCS(=O)(=O)N1CCN(CC(=O)Nc2ccc(/C=C/C(=O)c3ccc(OC)c(OC)c3)cc2)CC1	enzyme activity, inhibitor, Ellman		1 mM		inhibition	88.9%
O=C(O)CCCC(=O)O	enzyme activity, inhibitor		1000 µg/mL		inhibition	79.1 ± 1.42%
C=CCc1ccc(OC(=O)Cn2cnc3c2c(=O)n(C)c(=O)n3C)c(OC)c1	enzyme activity, inhibitor, Ellman		25 µM		inhibition	61.4%
COc1cc2c(cc1OC)C(=O)C(=Cc1ccc(N3CC[N+](C)(C)CC3)cc1)C2	non-competitive inhibitor, secondary plot				Ki'	0.29 µM
O=c1ccoc2ccc(OCCCCN3CCCC3)cc12	uncompetitive inhibitor, Ellman	human erythrocyte ghosts			αKi	2.82 ± 0.16 µM

For quick reference, copied from above:
SMILES	assay	test system	setting	scale	endpoint	value
O=C1C=C(OCCCCCCCCn2cc(CNc3ccc4nccnc4c3)nn2)C(=O)c2ccccc21	inhibitor, Lineweaver-Burk		unit not given	above one favours free enzyme	alpha constant	4.18
